Assay results gathered from unrelated publications.
Compare with care: the assays were run in different laboratories. ± marks the error that the study gave.

C[C@@H](O)[C@@H]1NC(=O)[C@@H]2CCCN2C(=O)[C@H](CC(N)=O)NC(=O)[C@@H](NC(=O)[C@H](Cc2ccc(O)cc2)NC(=O)CNC(=O)[C@@H](N)CC(N)=O)CCC(=O)NCCCC[C@@H](C(=O)N[C@@H](Cc2ccccc2)C(=O)N[C@@H](Cc2ccccc2)C(=O)N[C@@H](CCC(=O)O)C(=O)O)NC(=O)[C@H](Cc2ccc(O)cc2)NC1=O
plasma half-life (human plasma; 37 °C; baseline: APP wild-type peptide): 4 fold

CONC(=O)[C@H]1[C@@H](O)[C@@]2(O)c3c(cc(OC)nc3OC)O[C@@]2(c2ccc(C#N)cc2)[C@@H]1c1ccccc1
plasma half-life (plasma; intravenous, 0.5 mg/kg): 247 min

O=C(CCC(C(=O)[O-])N1CCN(C(CCC(=O)NCC(O)CO)C(=O)[O-])Cc2cccc(n2)CN(C(CCC(=O)NCC(O)CO)C(=O)[O-])CC1)NCC(O)CO.[153Gd+3] (stereo not drawn)
plasma protein binding (equilibrium dialysis; rat plasma; 0.01-5 µmol/mL, 2 h, 37 °C): 0%

CN1C(=CC2=C(O)C(=CC3=[N+](CCC[N+](C)(C)C)c4ccc(Cl)cc4C3(C)C)C2=O)C(C)(C)c2ccccc21
plasma protein binding (rapid equilibrium dialysis; plasma): 47.9%

CCOc1ccc2cc(-c3nn(CC4CCN(C)CC4)c4ncnc(N)c34)ccc2n1
plasma concentration (LC-MS/MS; crossbred piglets (Landrace x Large White); oral, 10 mg/kg twice daily, 2 h before dose 9, day 7 post-infection): 11.7 µM

CCCCCCCCCCCCCCCC(=O)N[C@@H](CCCCN)C(=O)N[C@@H](CCCCN)C(=O)N[C@@H](CO)C(=O)N[C@@H](CCCNC(=N)N)C(=O)N[C@@H](C)C(=O)N[C@@H](CC(C)C)C(=O)N[C@@H](Cc1ccccc1)C(N)=O
plasma concentration (LC-MS/MS; baboon; intravenous infusion, 3 and 6 mg/kg, 24 to 48 h): not detected

CN1C(=CC2=C([O-])C(=CC3=[N+](CCC[N+](C)(C)C)c4ccc(S(=O)(=O)[O-])cc4C3(C)C)C2=O)C(C)(C)c2ccccc21
plasma protein binding (rapid equilibrium dialysis; plasma): 4.4%

NC[C@@H](C(=O)Nc1ccc(-c2cn[nH]c2)cc1)c1ccccc1
plasma concentration (rabbit New Zealand White, plasma; topical ocular, one drop 0.1%, 8 h; below calibration minimum): < 0.8 ng/mL

CN1CCC(Cn2nc(-c3ccc4nc(O)ccc4c3)c3c(N)ncnc32)CC1
plasma concentration (piglets, crossbred; oral, 10 mg/kg, 2 h after dose 1, 3 days post infection): 0 µM

CN(C)CCCOc1ccc2cc1Oc1ccc(cc1)CC1c3c(cc(OCCCN(C)C)c4c3Oc3cc5c(cc3O4)CCN(C)C5C2)CCN1C (stereo not drawn)
plasma concentration (plasma; intraperitoneal, 5 mg/kg, 30 min): ≤ 600 ng/mL

CCOc1ccc2cc(-c3nn(CC4CCNCC4)c4ncnc(N)c34)ccc2n1
plasma concentration (piglets, crossbred; oral, 10 mg/kg twice daily, 2 h before dose 9, 7 days post infection): 0.2 ± 0.1 µM

CN1C(=CC2=C(O)C(=CC3=[N+](CCC[N+](C)(C)C)c4ccc(Br)cc4C3(C)C)C2=O)C(C)(C)c2ccccc21
plasma protein binding (rapid equilibrium dialysis; plasma): 68.3%

Some of these lines once more:
CN1C(=CC2=C(O)C(=CC3=[N+](CCC[N+](C)(C)C)c4ccc(Cl)cc4C3(C)C)C2=O)C(C)(C)c2ccccc21
plasma protein binding (rapid equilibrium dialysis; plasma): 47.9%

CCOc1ccc2cc(-c3nn(CC4CCNCC4)c4ncnc(N)c34)ccc2n1
plasma concentration (piglets, crossbred; oral, 10 mg/kg twice daily, 2 h before dose 9, 7 days post infection): 0.2 ± 0.1 µM
